Experimental data gathered from unrelated publications.
Each line is one published result; not all experiments were run side by side. Numbers after ± are the reported error.

SMILES | test | test system | setting | scale | measurement | result
O=C(O)CC[C@H](NP(=O)(O)OC[C@H](NC(=O)CC[C@H](NC(=O)c1ccc([18F])cc1)C(=O)O)C(=O)O)C(=O)O | ex vivo biodistribution | male NCr nude mice, LNCaP PSMA+ xenograft, kidney | 2 h |  | tissue uptake | 2.24 ± 0.6 %ID/g
CCCCCc1cc(O)c2c(c1)OC(C)(C)[C@@H]1CCC(C)=C[C@@H]21 | locomotor activity suppression | ICR mouse, male | subcutaneous, 60 min |  | ED50 | 7.7 mg/kg
CCCCCCCCCCC(=O)O[C@H]1CC[C@H]2[C@@H]3CCC4=CC(=O)CC[C@]4(C)[C@H]3CC[C@]12C |  | human blood | 600 ng/mL, 30 min, 4 °C, NaF 5 mg/mL, K2 oxalate 4 mg/mL | baseline: no compound added | testosterone change | 11.9%
C=C1C[C@@H]2[C@H](CC[C@]3(C)C(=O)CC[C@@H]23)[C@@]2(C)C=CC(=O)C=C12 | LC-MS/MS | postmenopausal breast cancer women, plasma | oral, 25 mg/day steady state, 2 h post-dose, outlier excluded |  | plasma concentration range | 2.5 to 46.7 ng/mL
CN[C@@](C)(C[18F])C(=O)O |  | SCID mouse U87 xenograft, lung | 120 min, post injection |  | tissue uptake | 1.9 ± 0.3 %ID/g
Cc1ncc2n1-c1ccc(Cl)cc1C(c1ccccc1F)=NC2 |  | human CYP3A5*3/*3 non-expressers, serum | oral, median, with: ketoconazole 400 mg |  | Tmax | 1 h
C#Cc1ccc2c(c1)C(c1ccccn1)=NCc1c(-c3cnco3)ncn1-2 |  | Sprague-Dawley rat, brain | intraperitoneal, 10 mg/kg, 4 h, unbound |  | concentration | 363 nM
COc1ccsc1CNCC[C@@]1(c2ccccn2)CCOC2(CCCC2)C1 |  | healthy human, normal hepatic function, plasma | intravenous, 1 mg single dose, arithmetic mean |  | clearance | 728 ± 198 mL/min
C=CCN1CC[C@]23c4c5ccc(O)c4O[C@H]2C(=O)CC[C@@]3(O)[C@H]1C5 | cytochrome c release, ELISA | BALB/cByJ female mouse liver mitochondria | 30 min | baseline: alamethicin maximal release | EC20 | > 400 µM
Cc1ncc2n1-c1ccc(Cl)cc1C(c1ccccc1F)=NC2 |  | healthy men, plasma | oral, 7.5 mg, day 26, LS mean, with: 14 days post amenamevir |  | Cmax | 37 ng/mL
N[C@@]1(c2ccccc2Cl)CCC[C@@H](O)C1=O |  | male CD-1 mice, plasma | intravenous, 50 mg/kg, 10 min, first sampling, not true peak |  | Cmax | 16000 ng/mL
CC(NC(C)(C)C)C(=O)c1cccc(Cl)c1 (stereo not drawn) |  | human, dried blood spots | dose not given, prasugrel alone session |  | AUC(0-6 h) | 49.1 ng·h/mL
COC(=O)c1ncn2c1[C@H](C)N=C(c1ccccc1F)c1cc(Br)ccc1-2 | metabolic stability | human, liver microsomes | 30 min |  | compound remaining | < 5%
COc1ccc2c(c1)[C@]13CCCC[C@@H]1[C@H](C2)N(C)CC3 |  | Wistar rat, both sexes, plasma | oral, 5 mg/kg, 2 h after pretreatment, with: single TCE 400 mg/kg |  | Tmax | 0.49 ± 0.36 h
COc1cccc(C2(O)CCCCC2CN(C)C)c1 (stereo not drawn) |  | human, plasma | oral, 100 mg, single dose, fasted |  | AUC | 2980 ng·h/mL
C[C@H]1CNCCc2ccc(Cl)cc21 |  | male Sprague-Dawley rat, plasma | subcutaneous, 0.5 mg/kg, single dose |  | AUC(0-t) | 29 ng·h/mL
CN1CC[C@@]23CCCC[C@@H]2[C@@H]1Cc1ccc(O)cc13 |  | Wistar rat, both sexes, plasma | oral, 5 mg/kg DEM, DEM 2 h after pretreatment, with: TCE 400 mg/kg single pretreatment |  | MRT(0-t) | 3.23 ± 1.3 h
N#Cc1ccccc1-c1cc(-c2ccccn2)cn(-c2ccccc2)c1=O |  | human, plasma | oral |  | unbound fraction | 0.0136

Excerpt of the above:
SMILES | test | test system | setting | scale | measurement | result
C=CCN1CC[C@]23c4c5ccc(O)c4O[C@H]2C(=O)CC[C@@]3(O)[C@H]1C5 | cytochrome c release, ELISA | BALB/cByJ female mouse liver mitochondria | 30 min | baseline: alamethicin maximal release | EC20 | > 400 µM
O=C(O)CC[C@H](NP(=O)(O)OC[C@H](NC(=O)CC[C@H](NC(=O)c1ccc([18F])cc1)C(=O)O)C(=O)O)C(=O)O | ex vivo biodistribution | male NCr nude mice, LNCaP PSMA+ xenograft, kidney | 2 h |  | tissue uptake | 2.24 ± 0.6 %ID/g
